{"data": "Published values gathered from unrelated publications", "note": "Lines come from different studies, so protocols differ. ± marks the error that the study gave."}
{"Structure (SMILES)": "O=C(Nc1cccc(C(=O)N2CCC(c3nc(-c4ccccc4)n[nH]3)CC2)c1)c1ccccc1", "target": "FSP1, ancestral", "test": "resazurin reduction, inhibitor", "conditions": "pH 7.2, with: NADH, resazurin", "quantity": "IC50", "value": "912 ± 130 nM"}
{"Structure (SMILES)": "Fc1ccc(Nc2nc(NC3CCCCC3)c3cc(Br)ccc3n2)cc1F", "target": "β2AR/β1AR ECL3 chimera", "test": "β-arrestin2 recruitment, antagonist, BRET", "conditions": "with: isoprenaline 1 µM", "quantity": "pIC50", "value": 6.2}
{"Structure (SMILES)": "OB1c2sccc2C=NN1Cc1ccccc1", "target": "human pancreatic trypsin", "test": "enzyme activity, inhibitor", "quantity": "IC50", "value": "> 100000 nM"}
{"Structure (SMILES)": "Cn1ccc2cc(-n3c(=O)[nH]c4sc5c(c4c3=O)CCCC5)ccc21", "target": "rat thyroid hormone receptor", "test": "radioligand binding", "conditions": "10 µM", "quantity": "inhibition", "value": "0%"}
{"Structure (SMILES)": "Fc1ccc(Nc2nc(NC3CCCCC3)c3ccccc3n2)cc1F", "target": "β2AR/β1AR ECL3 chimera", "test": "β-arrestin2 recruitment, antagonist, BRET", "how to read": "reference: isoprenaline maximal response", "quantity": "maximal inhibition", "value": "3.6%"}
{"Structure (SMILES)": "CC(C)c1ccc(N(C)c2ccc3c(c2)OCC[C@H]3CNc2cnccc2C(=O)O)cc1", "target": "KDM4A-D", "test": "enzyme activity, inhibitor", "quantity": "IC50", "value": "≤ 80 nM"}
{"Structure (SMILES)": "C=CC(=O)N1[C@@H](c2ccc3c(c2)OCO3)c2[nH]c3ccccc3c2C[C@H]1C(=O)N1CCN(C)CC1", "target": "human cyclin E1 N112C-3xFLAG:CDK2", "test": "co-IP with TMT proteomics, refers to: HSPA9", "conditions": "concentration not given, P38646", "how to read": "reference: wild type DMSO", "quantity": "relative co-enrichment", "value": "102%"}
{"Structure (SMILES)": "Cc1cn(CC(=O)N(CCNC(=O)CN(CCNC(=O)CN(CCNC(=O)CN(CCNC(=O)CN(CCNC(=O)CN(CCNC(=O)CN(CCNC(=O)CN(CCN)C(=O)Cn2cnc3c(=O)[nH]c(N)nc32)C(=O)Cn2cnc3c(N)ncnc32)C(=O)Cn2cc(C)c(=O)[nH]c2=O)C(=O)Cn2cnc3c(=O)[nH]c(N)nc32)C(=O)Cn2cc(C)c(=O)[nH]c2=O)C(=O)Cn2cnc3c(=O)[nH]c(N)nc32)C(=O)Cn2cnc3c(N)ncnc32)CC(=O)NCCN(CC(=O)NCCOCCOCC(N)=O)C(=O)Cn2cnc3c(N)ncnc32)c(=O)[nH]c1=O", "target": "mismatched DNA TT", "test": "duplex formation, UV melting", "how to read": "reference: complementary DNA", "quantity": "ΔTm", "value": "-13.8 °C"}
{"Structure (SMILES)": "Nc1nnc(-c2ccccc2O)cc1N1CC2CCC(C1)N2c1ccnc(C#CCCN2CCCCCC2)c1", "target": "FBXO22 Cys117", "test": "peptide mapping mass spectrometry", "conditions": "50 µM, 4 h, with: SMARCA2", "quantity": "cysteine modification", "value": "9.28%"}
{"Structure (SMILES)": "Nc1ncc(-c2cc(-c3cnn(CC(F)(F)F)c3)ncc2F)nc1C(=O)NC1CNCC(F)C1 (stereo not drawn)", "target": "YES", "test": "KINOMEscan competition binding", "conditions": "1 µM", "how to read": "reference: DMSO control", "quantity": "remaining binding", "value": "83%"}
{"Structure (SMILES)": "C=CC(=O)Nc1cccc(Cn2ncc3cnc(Nc4cnn(CCOC)c4)nc32)c1", "target": "NEK2 human", "test": "binding, KINOMEscan", "conditions": "100 nM", "how to read": "lower = stronger binding", "quantity": "percent of control", "value": "100%"}
{"Structure (SMILES)": "Cc1ccc(S(=O)(=O)N/N=C/c2ccsc2B(O)O)cc1", "target": "human pancreatic trypsin", "test": "enzyme activity, inhibitor", "quantity": "IC50", "value": "> 100000 nM"}
{"Structure (SMILES)": "C[n+]1ccc(/C=N/NC(=O)c2cccc(C(=O)N/N=C/c3cc[n+](C)c4ccccc34)n2)c2ccccc21", "target": "human telomeric G-quadruplex DNA", "test": "UV melting", "conditions": "6 µM, 100 mM potassium, with: DNA 3 µM", "quantity": "delta Tm", "value": "31.3 °C"}
{"Structure (SMILES)": "CSCc1cn(-c2cccc(C(=O)N3CCC(c4nc(-c5ccccc5)n[nH]4)CC3)c2)nn1", "target": "FSP1, ancestral", "test": "resazurin reduction, inhibitor", "conditions": "pH 7.2, with: NADH, resazurin", "quantity": "IC50", "value": "534 ± 60 nM"}
{"Structure (SMILES)": "NCCOc1cc(NC(=O)c2cc(OCc3cn(Cc4ccc(C(=O)O)cc4)nn3)cc(C(=O)Nc3cc(OCCN)c4ccccc4n3)n2)nc2ccccc12", "target": "human telomeric G-quadruplex DNA", "test": "FRET melting", "conditions": "1 µM, pH 7.4, with: 60 mM potassium", "quantity": "ΔTm", "value": "6.3 ± 0.4 K"}
{"Structure (SMILES)": "c1ccc(-c2n[nH]cc2-c2ccnc3ccccc23)nc1", "target": "KNS1 (Candida albicans)", "test": "kinase binding, MIB/MS competition", "test system": "Candida albicans lysate", "conditions": "1 µM", "how to read": "reference: DMSO", "quantity": "log2 fold change", "value": 0.02}
{"Structure (SMILES)": "CC[C@H](C)[C@H](NC(=O)[C@H](CC(C)C)NC(=O)[C@H](C)NC(=O)[C@H](C)NC(=O)[C@@H]1CCCN1C(=O)[C@@H](NC(=O)[C@H](C)N)C(C)C)C(=O)N[C@@H](CC(C)C)C(=O)N[C@@H](CCCNC(=N)N)C(=O)N[C@@H](CCC(=O)O)C(=O)N[C@@H](CCCCN)C(=O)N[C@@H](CCCCN)C(=O)N[C@@H](CCCCN)C(=O)N[C@@H](CCCCNC(=O)CCCCCNC(=S)Nc1ccc2c(c1)C(=O)OC21c2ccc(O)cc2Oc2cc(O)ccc21)C(N)=O", "target": "XIAP (human)", "test": "DIABLO peptide pull-down", "conditions": "concentration not given, 10-fold competition", "how to read": "reference: empty beads", "quantity": "log2 fold change", "value": 8.58}
{"Structure (SMILES)": "Fc1ccc(Nc2nc(NC3CCCCC3)c3cc(C(F)(F)F)ccc3n2)cc1F", "target": "β2AR/β1AR ICL1 chimera", "test": "β-arrestin2 recruitment, antagonist, BRET", "how to read": "reference: isoprenaline maximal response", "quantity": "maximal inhibition", "value": "-1%"}
{"Structure (SMILES)": "C[n+]1cc(NC(=O)c2ccc3ccc4ccc(C(=O)Nc5cc6ccccc6[n+](C)c5)nc4c3n2)cc2ccccc21", "target": "human telomeric G-quadruplex DNA", "test": "UV melting", "conditions": "3 µM, 100 mM potassium, with: DNA 3 µM", "quantity": "delta Tm", "value": "3.2 °C"}
{"Structure (SMILES)": "NCCCn1cc(COc2cc(C(=O)Nc3cc(OCCN)c4ccccc4n3)nc(C(=O)Nc3cc(OCCN)c4ccccc4n3)c2)nn1", "target": "human telomeric G-quadruplex DNA", "test": "FRET melting", "conditions": "1 µM, pH 7.4, with: 60 mM potassium", "quantity": "ΔTm", "value": "18.8 ± 0.6 K"}
{"Structure (SMILES)": "CC[C@H](C)[C@H](NC(=O)[C@@H]1CCCN1C(=O)[C@@H](NC(=O)[C@H](C)N)C(C)C)C(=O)N[C@@H](C)C(=O)N[C@@H](CCC(N)=O)C(=O)N[C@@H](CCCCN)C(=O)N[C@@H](CO)C(=O)N[C@@H](CCC(=O)O)C(=O)N1CCC[C@H]1C(=O)N[C@@H](Cc1ccccc1)C(=O)N[C@@H](CCCCN)C(=O)N[C@@H](CCCCN)C(=O)N[C@@H](CCCCN)C(=O)N[C@@H](CCCCNC(=O)CCCCCNC(=S)Nc1ccc2c(c1)C(=O)OC21c2ccc(O)cc2Oc2cc(O)ccc21)C(N)=O", "target": "XIAP (human)", "test": "DIABLO peptide pull-down", "conditions": "concentration not given, 10-fold competition", "how to read": "reference: empty beads", "quantity": "log2 fold change", "value": 10.9}
{"note": "For quick reference, copied from above:"}
{"Structure (SMILES)": "Nc1nnc(-c2ccccc2O)cc1N1CC2CCC(C1)N2c1ccnc(C#CCCN2CCCCCC2)c1", "target": "FBXO22 Cys117", "test": "peptide mapping mass spectrometry", "conditions": "50 µM, 4 h, with: SMARCA2", "quantity": "cysteine modification", "value": "9.28%"}
{"Structure (SMILES)": "Nc1ncc(-c2cc(-c3cnn(CC(F)(F)F)c3)ncc2F)nc1C(=O)NC1CNCC(F)C1 (stereo not drawn)", "target": "YES", "test": "KINOMEscan competition binding", "conditions": "1 µM", "how to read": "reference: DMSO control", "quantity": "remaining binding", "value": "83%"}
